Results pooled from the literature.
Each numbered part is a random draw from the data of one study; scales do not carry over between parts. Substitutions count along the parent as printed.

Set 1 — technique: Sort-seq; refers to: YFP reporter; sample: E. coli; setting: PhoQ-PhoP variant library; added: 10 µM Mg2+; baseline: high Mg2+ state; direction: higher = stronger signaling
Molecule: PhoQ, residues 284 288 289 292 302 303 SSCCRF
The fold induction was 4.79 (PhoP, residues 12 14 15 18 19 TQCLL (Escherichia coli, UniProt P23836)).
PhoP, residues 12 14 15 18 19 VHTVL (Escherichia coli, UniProt P23836) — fold induction: 5.09.
It gave 4.85 for fold induction (PhoP, residues 12 14 15 18 19 ICWRQ (Escherichia coli, UniProt P23836)).

Set 2 — technique: RNA Bind-n-Seq; form: RNA; sample: in vitro; tested at: 100 nM; setting: RNA with constant flanks, ends assumed; baseline: input RNA pool; direction: higher = stronger binding
Target: RING finger protein unkempt homolog, zinc fingers 1-6, SBP tag (UNK, Homo sapiens, UniProt Q9C0B0, residues 30-357)
Chain of UniProt Q9C0B0 (30-357, looked up): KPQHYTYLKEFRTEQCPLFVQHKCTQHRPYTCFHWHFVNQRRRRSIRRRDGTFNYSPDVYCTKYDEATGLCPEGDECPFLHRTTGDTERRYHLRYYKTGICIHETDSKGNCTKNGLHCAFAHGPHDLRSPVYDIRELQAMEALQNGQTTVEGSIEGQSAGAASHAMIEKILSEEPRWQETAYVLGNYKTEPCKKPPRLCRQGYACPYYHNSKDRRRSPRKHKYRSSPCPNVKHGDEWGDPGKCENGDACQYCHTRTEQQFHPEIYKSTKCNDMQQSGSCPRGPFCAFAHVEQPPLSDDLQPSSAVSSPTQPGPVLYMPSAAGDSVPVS
For `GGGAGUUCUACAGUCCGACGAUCAAACCCCGAUUUCCGAUGUGAUAUUCCGGCUUUCAUUCCAGUUUGUUUUGUUUUUUUGUUCCGAUACCAAUCUUUUAAAUUCUUGCAUUUCCGUAAGAAAGCUAUCUUUUUAUGGAUGUUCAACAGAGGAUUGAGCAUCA`, the bound/input enrichment was 0.588 ratio.
The bound/input enrichment of `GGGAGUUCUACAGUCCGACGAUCAUCCCGUCCGGGGUAACCAUUAAUUUAUUUUAUAAAGAAAGGAAAUGCUGAAAGUCGUAUCCGUACUGAGUUCCGUUGGAGAAUUCCGAUAAGUAAGUAUCUUUCCGGUAAUUCUAAAAUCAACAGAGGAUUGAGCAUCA` is reported as 0.408 ratio.
`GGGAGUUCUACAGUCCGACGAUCCAGGGUGGGACCCGGGACCCGCGGCUCAGUGGCCCGCCCGCCACGUCAGCCAAGCCACUUCCGGUCCAUUUUUUAAUUUUAACAGUGCUCUUCCAUCUUGUGCAUAAGCCUGAGAUUUGGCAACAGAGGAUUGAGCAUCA` gave a bound/input enrichment of 0.96 ratio.
For `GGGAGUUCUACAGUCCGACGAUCCUUAAUCCGAGGGCAAUAUAUGUUUCAUAAAGAAGAGUCUUUAUAAUUUUGUUUGUCAGACCGUAUUUUGGAAUUUGUAUAAUAAGGAUGUUCCGAAGCCAUAUAAGUGGCUUUUUUUAACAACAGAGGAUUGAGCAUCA`, the bound/input enrichment was 0.213 ratio.
`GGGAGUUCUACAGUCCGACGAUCCCUACAAUAAUGAAAACCUACAGGAAUUUUUUUAUUUUUCAUUUUCCCCUCCGGCAUAUUCCGUAUUUUUCCCCCAGGCAGAUCAUUCUGAGUGUGCGAGUGUGUGUGCACAUGUUACAACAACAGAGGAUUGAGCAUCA` has a bound/input enrichment of 0.669 ratio.

Set 3 — technique: competition protein-binding microarray; form: double-stranded DNA, one strand shown; sample: in vitro; tested at: 2 µM; added: Cbf1 competitor, 0.05 µM; direction: higher = stronger binding
Target: Phosphate system positive regulatory protein PHO4, full length, GST-tagged (PHO4, Saccharomyces cerevisiae, UniProt P07270, residues 1-312)
Setting: whole 60-bp probe, lowest competitor level
Residues (chain): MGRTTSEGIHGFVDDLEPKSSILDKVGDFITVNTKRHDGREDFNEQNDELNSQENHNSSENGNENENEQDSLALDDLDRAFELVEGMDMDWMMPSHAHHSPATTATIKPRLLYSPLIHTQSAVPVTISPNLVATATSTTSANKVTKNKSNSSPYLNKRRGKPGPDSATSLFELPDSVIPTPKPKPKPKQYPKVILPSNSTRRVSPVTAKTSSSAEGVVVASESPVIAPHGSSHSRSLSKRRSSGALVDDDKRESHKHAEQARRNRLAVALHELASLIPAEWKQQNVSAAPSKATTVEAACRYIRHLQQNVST
`CTCTTTGGTCTTGGCCAGAGGTCCCAGAGTCGAAAAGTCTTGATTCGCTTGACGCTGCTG` gave a fluorescence intensity of 2370 a.u.
`CATACCCAACCTTGGCTCGTGGGTGAAGATATTTGTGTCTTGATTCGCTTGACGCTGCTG` gave a fluorescence intensity of 12300 a.u.
The fluorescence intensity of `CCTTTTGGTCTTCAACACGTTCAGCCTTGATTTCCTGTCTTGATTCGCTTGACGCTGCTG` is reported as 10800 a.u.
With `TGCGCAACAACTTGTCACGCTACTTTATGTCTAGAAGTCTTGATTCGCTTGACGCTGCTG` the fluorescence intensity was 5170 a.u.
`CTTCTGTAAATTTGAGGAGTGGGTGGACGCGCCCCGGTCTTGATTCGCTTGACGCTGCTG` has a fluorescence intensity of 4160 a.u.
`TTTGGCAAATTGACTCACGTGAGGACGTCTGCTAACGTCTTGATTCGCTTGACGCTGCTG` gave a fluorescence intensity of 12300 a.u.
`GCCAGCCGGTGCGGCCACGTGTTGAATCTTGACTTTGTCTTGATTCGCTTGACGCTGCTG` gave a fluorescence intensity of 17800 a.u.
With `CTTCTGTAAATTTGGTCGGTGGGTGGACGCGCCCCGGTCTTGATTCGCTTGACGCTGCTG` the fluorescence intensity was 3590 a.u.

Set 4 — target: inorganic phosphate, free oxyanion; technique: microfluidic competitive inhibition; sample: in vitro, cell-free expressed; tested at: not given; direction: lower = stronger binding
Setting: derived from inhibition constants, unchanged parent 615000 nM
Starting sequence: PafA, mature enzyme, eGFP fusion (Elizabethkingia meningoseptica, UniProt Q9KJX5); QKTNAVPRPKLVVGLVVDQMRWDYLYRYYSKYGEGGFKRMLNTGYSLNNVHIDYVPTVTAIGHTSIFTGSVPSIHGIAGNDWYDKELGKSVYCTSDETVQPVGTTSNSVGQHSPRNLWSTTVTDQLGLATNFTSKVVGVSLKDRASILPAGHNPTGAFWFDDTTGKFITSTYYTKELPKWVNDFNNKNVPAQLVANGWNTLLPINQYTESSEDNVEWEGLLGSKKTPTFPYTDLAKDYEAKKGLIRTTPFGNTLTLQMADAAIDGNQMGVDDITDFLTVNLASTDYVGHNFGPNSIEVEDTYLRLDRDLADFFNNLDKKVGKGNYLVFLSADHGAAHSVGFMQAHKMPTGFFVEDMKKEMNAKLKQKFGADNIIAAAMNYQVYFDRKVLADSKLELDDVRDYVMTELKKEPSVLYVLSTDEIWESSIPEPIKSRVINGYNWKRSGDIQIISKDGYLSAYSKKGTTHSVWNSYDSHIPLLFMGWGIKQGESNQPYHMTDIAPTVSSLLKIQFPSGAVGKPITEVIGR
`V136G`: “phosphate dissociation constant” 497 µM.
`N280G`: “phosphate dissociation constant” 252 µM.
Under “phosphate dissociation constant”, `M268G` is recorded as 606 µM.
`I273G`: “phosphate dissociation constant” 610 µM.
`E299V`: “phosphate dissociation constant” 518 µM.
For `L201G`, “phosphate dissociation constant” read 544 µM.
`K224V`: “phosphate dissociation constant” 610 µM.
`L202V` — result for “phosphate dissociation constant”: 650 µM.
`L281G`: “phosphate dissociation constant” 605 µM.
`V523G`: “phosphate dissociation constant” 585 µM.
Under “phosphate dissociation constant”, `I450V` is recorded as 601 µM.
`E522V` — result for “phosphate dissociation constant”: 530 µM.
`N379G`: “phosphate dissociation constant” 579 µM.
`G151A`: “phosphate dissociation constant” 486 µM.
For `D420V`, “phosphate dissociation constant” read 619 µM.
`P154V`: “phosphate dissociation constant” 449 µM.
For `R386G`, “phosphate dissociation constant” read 727 µM.
Under “phosphate dissociation constant”, `A375G` is recorded as 578 µM.
For `K432G`, “phosphate dissociation constant” read 469 µM.
For `I499V`, “phosphate dissociation constant” read 586 µM.
Under “phosphate dissociation constant”, `T465V` is recorded as 401 µM.
For `D446V`, “phosphate dissociation constant” read 718 µM.
Under “phosphate dissociation constant”, `N470V` is recorded as 487 µM.
For `E522G`, “phosphate dissociation constant” read 665 µM.
Under “phosphate dissociation constant”, `Y29G` is recorded as 507 µM.

Set 5 — technique: protein-binding microarray; form: double-stranded DNA, one strand shown; sample: in vitro; tested at: 2540 nM top; setting: 60-bp whole probe; added: salmon DNA 0.4 mg/ml; baseline: random background probes; direction: higher = stronger binding; constant ends, left off below: GCCTAGCAC … GTCTTGATTCGCTTGACGCTGCTG
Target: Interferon regulatory factor 3, full length, phosphomimetic (IRF3, Homo sapiens, UniProt Q14653, residues 1-427, S386D/S396D/S398D/S402D/T404D/S405D)
Chain of UniProt Q14653 (whole entry, unmodified, looked up): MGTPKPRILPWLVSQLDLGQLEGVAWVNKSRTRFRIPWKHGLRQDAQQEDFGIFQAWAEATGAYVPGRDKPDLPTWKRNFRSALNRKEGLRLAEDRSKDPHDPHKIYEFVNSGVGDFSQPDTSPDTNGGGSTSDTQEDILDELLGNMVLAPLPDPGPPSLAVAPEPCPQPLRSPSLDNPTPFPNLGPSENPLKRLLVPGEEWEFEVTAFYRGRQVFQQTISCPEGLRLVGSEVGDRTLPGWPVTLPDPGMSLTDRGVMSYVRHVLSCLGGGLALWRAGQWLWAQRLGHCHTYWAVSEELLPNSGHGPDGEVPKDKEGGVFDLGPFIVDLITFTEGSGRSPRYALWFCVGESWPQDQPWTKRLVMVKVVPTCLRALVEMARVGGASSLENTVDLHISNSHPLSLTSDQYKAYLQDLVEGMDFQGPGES
`GACGGTATCGGTCGCGGGACGTGCTAG`: “fitted relative affinity” 1.56 z-score.
For `GCTTTTTTTTTTTTTTTTTTGTGCTAG`, “fitted relative affinity” read 1.14 z-score.
`TGAGATCTCAGTATCGATTAGTGCTAG`: “fitted relative affinity” 0.884 z-score.
Under “fitted relative affinity”, `GACGATTTCGGGACTAGAGACGTGCTA` is recorded as 1.97 z-score.
`GTGTTTTGCCCTATTTAAGAGTGCTAG`: “fitted relative affinity” 1.28 z-score.
`TCACCCTTGCTTTCCAAACTGTGCTAG`: “fitted relative affinity” 2.67 z-score.
`TTCTGATCCATTTTGGTTTTGTGCTAG` — result for “fitted relative affinity”: 3.15 z-score.
Under “fitted relative affinity”, `GACGGTCTACTTATCCTGACGTGCTAG` is recorded as 0.327 z-score.

Set 6 — read-out: binding; technique: phage display NGS; form: peptide; baseline: input library
Target: UDP-N-acetylglucosamine--peptide N-acetylglucosaminyltransferase 110 kDa subunit (OGT, Homo sapiens, UniProt O15294)
Chain of UniProt O15294 (whole entry, looked up): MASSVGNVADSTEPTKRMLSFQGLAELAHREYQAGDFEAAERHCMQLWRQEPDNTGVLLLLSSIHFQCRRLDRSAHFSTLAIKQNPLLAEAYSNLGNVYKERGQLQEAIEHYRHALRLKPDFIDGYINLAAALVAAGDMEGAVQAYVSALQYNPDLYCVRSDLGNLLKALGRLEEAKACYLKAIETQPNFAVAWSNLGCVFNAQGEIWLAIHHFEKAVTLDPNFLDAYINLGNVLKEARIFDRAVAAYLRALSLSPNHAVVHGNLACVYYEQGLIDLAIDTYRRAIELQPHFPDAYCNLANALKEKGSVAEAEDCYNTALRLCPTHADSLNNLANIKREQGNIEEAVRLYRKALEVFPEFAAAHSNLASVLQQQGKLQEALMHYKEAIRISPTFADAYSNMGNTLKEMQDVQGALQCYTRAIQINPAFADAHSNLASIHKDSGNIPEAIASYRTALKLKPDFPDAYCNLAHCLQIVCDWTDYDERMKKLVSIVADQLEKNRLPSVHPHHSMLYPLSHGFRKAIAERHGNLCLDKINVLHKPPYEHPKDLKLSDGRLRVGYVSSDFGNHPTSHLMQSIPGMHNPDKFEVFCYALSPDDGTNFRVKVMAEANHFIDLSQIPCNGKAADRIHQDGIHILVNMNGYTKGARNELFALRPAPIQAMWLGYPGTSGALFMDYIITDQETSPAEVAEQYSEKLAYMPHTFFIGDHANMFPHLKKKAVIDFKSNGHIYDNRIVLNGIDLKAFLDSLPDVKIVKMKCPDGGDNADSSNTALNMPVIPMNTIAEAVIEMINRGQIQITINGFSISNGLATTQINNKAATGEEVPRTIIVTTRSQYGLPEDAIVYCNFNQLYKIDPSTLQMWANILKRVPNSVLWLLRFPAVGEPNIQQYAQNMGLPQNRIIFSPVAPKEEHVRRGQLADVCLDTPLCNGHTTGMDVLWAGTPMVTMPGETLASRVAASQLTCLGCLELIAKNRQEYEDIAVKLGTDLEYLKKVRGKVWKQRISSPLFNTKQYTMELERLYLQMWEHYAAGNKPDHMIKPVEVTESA
`IVFAPQYQLQYTRSA`: “minimum log2 enrichment ratio” 4.39.
`VMGTPQYLPHYQIDV` — result for “minimum log2 enrichment ratio”: 3.88.
Under “minimum log2 enrichment ratio”, `HLHHYDDYYTHDPVI` is recorded as 2.77.
For `SDVTAMPKYQIQYQY`, “minimum log2 enrichment ratio” read 4.32.
Under “minimum log2 enrichment ratio”, `QFLHNHSDEKSHPHY` is recorded as 2.3.
Under “minimum log2 enrichment ratio”, `QPYSNYHHHAHIRYD` is recorded as 2.19.

Mixed results
For COC[C@H]1OC(=O)c2coc3c2[C@@]1(C)C1=C(C3=O)[C@@H]2CCC(=O)[C@@]2(C)C[C@H]1OC(C)=O, the remaining activity was 99.5% (Proto-oncogene tyrosine-protein kinase Src (SRC, Homo sapiens, UniProt P12931); enzyme activity, inhibitor; 0.5 µM; baseline: control).
`KRT8 (Homo sapiens, UniProt P05787)`: interaction screen “cross-linked” (DES (Homo sapiens, UniProt P17661); cross-linking MS; hits only).

Repeated from above (set 2):
For `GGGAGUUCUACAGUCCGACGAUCAAACCCCGAUUUCCGAUGUGAUAUUCCGGCUUUCAUUCCAGUUUGUUUUGUUUUUUUGUUCCGAUACCAAUCUUUUAAAUUCUUGCAUUUCCGUAAGAAAGCUAUCUUUUUAUGGAUGUUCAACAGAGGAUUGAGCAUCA`, the bound/input enrichment was 0.588 ratio.
The bound/input enrichment of `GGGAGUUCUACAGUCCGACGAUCAUCCCGUCCGGGGUAACCAUUAAUUUAUUUUAUAAAGAAAGGAAAUGCUGAAAGUCGUAUCCGUACUGAGUUCCGUUGGAGAAUUCCGAUAAGUAAGUAUCUUUCCGGUAAUUCUAAAAUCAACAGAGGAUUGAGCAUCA` is reported as 0.408 ratio.
`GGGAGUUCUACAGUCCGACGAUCCAGGGUGGGACCCGGGACCCGCGGCUCAGUGGCCCGCCCGCCACGUCAGCCAAGCCACUUCCGGUCCAUUUUUUAAUUUUAACAGUGCUCUUCCAUCUUGUGCAUAAGCCUGAGAUUUGGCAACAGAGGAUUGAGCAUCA` gave a bound/input enrichment of 0.96 ratio.
For `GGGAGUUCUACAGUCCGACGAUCCUUAAUCCGAGGGCAAUAUAUGUUUCAUAAAGAAGAGUCUUUAUAAUUUUGUUUGUCAGACCGUAUUUUGGAAUUUGUAUAAUAAGGAUGUUCCGAAGCCAUAUAAGUGGCUUUUUUUAACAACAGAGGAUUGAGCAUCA`, the bound/input enrichment was 0.213 ratio.
`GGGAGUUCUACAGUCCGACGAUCCCUACAAUAAUGAAAACCUACAGGAAUUUUUUUAUUUUUCAUUUUCCCCUCCGGCAUAUUCCGUAUUUUUCCCCCAGGCAGAUCAUUCUGAGUGUGCGAGUGUGUGUGCACAUGUUACAACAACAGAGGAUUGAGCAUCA` has a bound/input enrichment of 0.669 ratio.
